Published values from different studies.
Parts stem from different laboratories: compare values within a part only. Changes are numbered by the printed parent chain.

Block 1 — target: CCNF, cyclin fold, Cln2 fusion (human); method: yeast growth competition, sequencing; medium: yeast; notes: strong parent motif; relative to: not given; direction: higher = stronger binding; quantity: normalised enrichment score
Starting sequence: BRCA2 docking peptide (human); PSIKRNLLNEFDR
E10S: 2.97
N9C: 2.51
K4E: 0.285
N9L: 4.55
D12R: 2.71
N9R: 3.96
S2F: 1.48
L8K: 1.02

Block 2 — method: protein-binding microarray; molecule type: double-stranded DNA, one strand shown; medium: in vitro; concentration: not given; direction: higher = stronger binding; quantity: E-score
Target: Protein C-ets-1 (ETS1, Homo sapiens, UniProt P14921, residues 1-441, full length assumed)
Notes: k-mer, scored over probes, only values ≥0.25
Residues (chain): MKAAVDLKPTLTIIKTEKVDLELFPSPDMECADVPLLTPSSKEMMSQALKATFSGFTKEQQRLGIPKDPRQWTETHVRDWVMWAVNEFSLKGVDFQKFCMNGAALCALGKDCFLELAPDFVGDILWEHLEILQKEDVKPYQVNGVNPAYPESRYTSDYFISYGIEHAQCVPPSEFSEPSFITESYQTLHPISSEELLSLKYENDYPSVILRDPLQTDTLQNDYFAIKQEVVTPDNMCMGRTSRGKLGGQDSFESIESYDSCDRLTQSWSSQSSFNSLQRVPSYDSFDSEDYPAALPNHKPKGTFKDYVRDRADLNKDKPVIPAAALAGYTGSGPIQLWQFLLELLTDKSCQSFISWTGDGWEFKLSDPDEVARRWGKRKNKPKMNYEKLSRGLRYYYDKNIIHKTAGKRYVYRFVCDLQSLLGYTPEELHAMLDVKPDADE
ATATCCCG: 0.302
AGAACGGA: 0.287
CCGGTGTA: 0.316
CATCCGCA: 0.442
CGGATCCC: 0.322
GACATCCA: 0.297
AGGAAGGC: 0.342
AGGAAATC: 0.437
CAGCTTCC: 0.405

Block 3 — method: universal PBM; molecule type: double-stranded DNA, one strand shown; medium: in vitro; concentration: not given; direction: higher = stronger binding; quantity: E-score
Target: Sal-like protein 4, full length isoform B (SALL4, Homo sapiens, UniProt Q9UJQ4-2, residues 1-616)
Notes: 8-mer, flanks averaged, mean of replicates
Residues (chain): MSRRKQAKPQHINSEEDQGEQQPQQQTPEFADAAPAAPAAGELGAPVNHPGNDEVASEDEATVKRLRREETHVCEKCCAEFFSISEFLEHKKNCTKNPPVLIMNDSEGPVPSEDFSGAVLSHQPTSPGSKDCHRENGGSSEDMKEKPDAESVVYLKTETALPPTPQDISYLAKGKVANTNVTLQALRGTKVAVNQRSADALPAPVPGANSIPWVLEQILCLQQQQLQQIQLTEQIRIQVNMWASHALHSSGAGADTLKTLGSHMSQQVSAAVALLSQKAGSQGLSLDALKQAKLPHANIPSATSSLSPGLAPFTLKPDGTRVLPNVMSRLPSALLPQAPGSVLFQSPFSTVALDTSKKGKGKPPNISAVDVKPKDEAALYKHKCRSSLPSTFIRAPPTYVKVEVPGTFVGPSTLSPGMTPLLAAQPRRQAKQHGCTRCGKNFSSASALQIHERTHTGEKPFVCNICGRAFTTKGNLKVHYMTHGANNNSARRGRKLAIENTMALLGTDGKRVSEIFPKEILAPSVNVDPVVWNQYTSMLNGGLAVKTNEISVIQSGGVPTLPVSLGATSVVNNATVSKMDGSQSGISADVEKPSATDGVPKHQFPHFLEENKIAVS
ATCTTTGG: 0.0314
GAGCGATC: -0.179
GCCACTAA: -0.0226
ATTAGCAC: 0.104
CAGCCGCC: -0.405
CCACCTGC: -0.271
AATTGAGC: 0.0516
TGCCGGCA: -0.0818
AGTCGCAA: 0.0217
AGATCTCA: 0.0675
ATCACCAG: 0.0006
GACGTACA: -0.0168
AGCGTGGA: -0.125
AATTGTAC: 0.201
ATCATTTC: 0.286
AGCCAGGA: -0.144

Other studies, line by line
PhoQ, residues 284 288 289 292 302 303 TTSMTC  fold induction (PhoP, residues 12 14 15 18 19 GQALL (Escherichia coli, UniProt P23836); Sort-seq, item: YFP reporter; E. coli; PhoQ-PhoP variant library, added: 10 µM Mg2+; relative to: high Mg2+ state, higher = stronger signaling): 17.6

Excerpt of the above (block 2):
AGAACGGA: 0.287
CCGGTGTA: 0.316
CATCCGCA: 0.442
CGGATCCC: 0.322
